Published values from different studies.
Every numbered part comes from another study and shows a few of its results, in no order. Positions count from the first letter of the parent shown.

Block 1
Target: ABI1, truncated, D143A, DHFR fusion (Arabidopsis thaliana)
Method: DHFR PCA, deep sequencing
Sample: yeast
Notes: methotrexate growth selection, single substitutions
With: (+)-ABA 0 µM
Baseline: wild-type fitted maximum
Reading: higher = stronger binding
Quantity: relative binding score
Starting sequence: PYL1, truncated, DHFR fusion (Arabidopsis thaliana); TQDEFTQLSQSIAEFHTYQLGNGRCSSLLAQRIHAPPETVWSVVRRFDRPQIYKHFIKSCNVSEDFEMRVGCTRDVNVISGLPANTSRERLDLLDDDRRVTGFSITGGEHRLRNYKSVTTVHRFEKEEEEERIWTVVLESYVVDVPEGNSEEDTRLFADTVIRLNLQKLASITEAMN
Variant = L82N; value = 8.18%
Variant = A30H; value = 6.64%
Variant = S26T; value = 27%
Variant = D153Q; value = -0.71%
Variant = V62P; value = -13.2%
Variant = R155L; value = 5.09%
Variant = F47T; value = -4.36%
Variant = T86Y; value = 20%
Variant = N61M; value = 23.6%
Variant = T17C; value = 2.71%
Variant = R49Q; value = 45.5%
Variant = Y18C; value = -5%
Variant = E14T; value = 5.01%
Variant = E64A; value = 31.2%
Variant = H110Y; value = 15.2%
Variant = S87W; value = 30.1%
Variant = T106W; value = -2.99%
Variant = H16K; value = -1.85%
Variant = W134I; value = 12%
Variant = I52A; value = 31.1%
Variant = S59F; value = 3.9%
Variant = V100S; value = -2.26%
Variant = G107A; value = 21.2%
Variant = L164T; value = 11.9%
Variant = V40N; value = -5.66%

Block 2
Target: Histone acetyltransferase KAT6A, both winged helices, GST fusion (KAT6A, Homo sapiens, UniProt Q92794, residues 1-181)
Method: protein binding microarray
Form: double-stranded DNA, one strand shown
Sample: in vitro
Tested at: not given
Notes: 8-mer, flanks averaged, mean of 2 arrays, mostly near background
Baseline: not given
Reading: higher = stronger binding
Quantity: E-score
Construct (chain): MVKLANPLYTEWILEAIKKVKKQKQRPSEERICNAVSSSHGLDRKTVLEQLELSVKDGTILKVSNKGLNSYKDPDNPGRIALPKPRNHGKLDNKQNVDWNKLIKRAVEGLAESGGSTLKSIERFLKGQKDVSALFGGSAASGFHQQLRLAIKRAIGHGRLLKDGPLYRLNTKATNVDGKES
Sequence = CAGTTTAC; value = -0.00983
Sequence = GGAACACA; value = -0.0766
Sequence = ACAACATC; value = 0.0076
Sequence = ACCTTTAT; value = -0.136
Sequence = AATTTTTG; value = -0.191
Sequence = CAGCGACC; value = 0.0618
Sequence = AGTCTATG; value = -0.206
Sequence = AGGGAGAG; value = -0.214
Sequence = AAAATCTT; value = -0.0561
Sequence = GGAGAACA; value = -0.0109
Sequence = ATCGATCA; value = -0.0397
Sequence = ATCACCAA; value = -0.16
Sequence = CGATCGGC; value = 0.292
Sequence = GGCGAGGA; value = -0.0466
Sequence = AGCGCACC; value = 0.213
Sequence = GCTCGAAC; value = -0.014
Sequence = GACCGACC; value = 0.0413
Sequence = GGATTAAC; value = 0.11
Sequence = CATGTCGA; value = -0.0596
Sequence = CTCGTGAA; value = -0.296
Sequence = GGCTTACC; value = 0.0336
Sequence = CTTCAGAA; value = -0.019
Sequence = ATCATAAT; value = -0.0839
Sequence = CATTTACA; value = -0.0563
Sequence = CCGGTATA; value = 0.198

Block 3
Target: CRIPT, C-terminal peptide
Method: DHFR complementation, deep sequencing
Sample: yeast
Notes: single substitutions, model-inferred values
Baseline: wild type
Reading: higher = weaker binding
Quantity: binding free energy change
Starting sequence: ERBIN, PDZ domain 1 (human); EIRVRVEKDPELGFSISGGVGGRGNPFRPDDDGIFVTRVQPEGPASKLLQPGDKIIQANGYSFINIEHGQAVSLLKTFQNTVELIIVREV; partner TKNYKQTSV
Variant = E67H; value = 0.221 kcal/mol
Variant = I64R; value = 0.0414 kcal/mol
Variant = E7F; value = 0.088 kcal/mol
Variant = G60Q; value = 0.153 kcal/mol
Variant = R38Y; value = 0.104 kcal/mol
Variant = P10E; value = -0.519 kcal/mol
Variant = F63Q; value = 0.842 kcal/mol
Variant = V82C; value = 0.298 kcal/mol
Variant = N80S; value = 0.0432 kcal/mol
Variant = K8S; value = 0.88 kcal/mol
Variant = I85N; value = 0.00133 kcal/mol
Variant = I85T; value = -0.0353 kcal/mol
Variant = Q50M; value = -0.0675 kcal/mol
Variant = V87H; value = 0.0192 kcal/mol
Variant = G24M; value = 1.45 kcal/mol
Variant = G69R; value = 0.346 kcal/mol

Block 4
Target: CCNE2, cyclin fold, Cln2 fusion (human)
Method: yeast growth competition, sequencing
Sample: yeast
Notes: weak parent motif
Baseline: not given
Reading: higher = stronger binding
Quantity: normalised enrichment score
Starting sequence: KIF20B docking peptide (human); KRAKRKLYTSEIS
Variant = KRAKRKLYTSEAS [I12A]; value = 0.591
Variant = KRAKRKLYTSAIS [E11A]; value = 1.05
Variant = KRAKAKLYTSEIS [R5A]; value = -0.121
Variant = KRAKRKLYTAEIS [S10A]; value = 0.0801
Variant = KRAKRKAYTSEIS [L7A]; value = 0.372
Variant = KRAKRALYTSEIS [K6A]; value = 0.301

Block 5
Target: RNA binding protein fox-1 homolog 2, RRM domain, GST-SBP tag (RBFOX2, Homo sapiens, UniProt O43251-10, residues 100-194)
Method: RNA Bind-n-Seq
Form: RNA
Sample: in vitro
Tested at: 365 nM
Notes: natural RNA segment, single round, ends assumed
Baseline: no-protein control
Reading: higher = stronger binding
Quantity: RBNS enrichment (R)
Constant ends, left off below: GGGAGUUCUACAGUCCGACGAUC … UGGAAUUCUCGGGUGCCAA
Construct (chain): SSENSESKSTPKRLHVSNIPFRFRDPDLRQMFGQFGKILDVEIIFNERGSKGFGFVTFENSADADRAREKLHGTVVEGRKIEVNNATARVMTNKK
Sequence = AGCCCUCAAGAUACCCUUGUCCCUGAAGUAGGGACUAACUAUAGCACAAGAUAGUAUGUGCCAAUAUAGCCAAGAUAAUAUGUGAAAUGGUCUUUCUAAAUGAUUAAAGA; value = 0.34
Sequence = AAUCCUGUAUUUAAAGGAAACCUUAAUUAUCAAUGGAUUUAUGAAGGAAAGUUAAAAACAAAUAUGCACAGUACAAAAUAGAUCUGUGGCUUUUUUUUUUUAAAGUAAGA; value = 0.414
Sequence = CACUGGUGGGGUUAAUAUAGCAUGUUAUCCUGUCUAUCUUUUGAAGAUUUCUGUAUAAGACUGUUGAGCAGUUUUUAAAAUAGUGUAGGAUAAUAUAAAAAGCGGAUAGA; value = 4.66
Sequence = GACUUUUCAGUUUCAUAAGGAAGAGUGUUGCCUGAGGCCCUAGGGAAUAUUGGGGAAUAGAAGGGAUUGAGGAAACAUUAAUAAUAGUUAUUCAAAAGACCCAAAUGCUU; value = 0.472
Sequence = UCUCCUUCUGGAGAUCAACCCACAUUAGAGUGUCUAAGGACUCCUGAGAAUUCCUGUUACAGUAAACAAAACUAACGUAAUCUACCAUUUCCUACACUAUUUGAGCAUGG; value = 0.45
Sequence = CCACUAUUAGGUUUUUUUUCUUUUCCUCUGUGGGGCUAAGACACUUGAUUAAACAGUUUUUCUUGUUGCACAGUCCUAAUUUCAUAAGGUCAAGGAGACACUCAGGCAUU; value = 0.683
Sequence = GUCUCUAGAGGAUACUCAUCUGGAGUCUCUGAAGACUUGACCCAUAUUUCCAAGACCCUACAACUCCAGCCUUGCCCUAUGACAUCAUCAAGGAUCUCCACAGAGGUGAC; value = 0.311
Sequence = ACUUAAGACAGCAGAGCACCUUAUAAUAACAGUCCUUGGGUAUGAUUUAAAAUAAAAUUUAAAAUUCAAGUUUUUGGGGGGGUCUUUGUUGUUCUACUCAGUCAUCCAGC; value = 0.64
Sequence = AUACUGAAACUUGCUGCCUAUUGGGUAUGCUGAGGCCCCACAGACUUACAGAAGAAGUGGCCCUCCAUAGACAUGUGUAGCAUCAAAACACAAAGGCCCACACUUCCUGA; value = 0.474
Sequence = UUACGAAUUCUGCCAUGCAGCGAUUCUUUAAGGAUAGUUUGUUUUAUUUAUCUUGUACAUAUGUAUUUAGAAAACUUUUAAACUUGAAAAAUAAAUAAUACUUAAUGUUA; value = 0.594
Sequence = AUAUACAUAAUGUGCUUAACCACUGCCUUUUAAAACUUUAAAUUAAAUAAAACAUUGGGGUUGAUUCAAUUUGGCCAUCUGUGUGUGUUUCUUUAUAGAUACAUGGGCUA; value = 0.417
Sequence = UCCUGAGAUCCAUCCCCUAGACUGACUGACCGACAGACACACAAACACCAGACUGAAGCACAUGUAAUAUAGACUGUGUAUGUUUACAAUGUUGUGUAUAAAUGGGACAC; value = 0.547

Block 6
Target: Sal-like protein 4, full length isoform B (SALL4, Homo sapiens, UniProt Q9UJQ4-2, residues 1-616)
Method: universal PBM
Form: double-stranded DNA, one strand shown
Sample: in vitro
Tested at: not given
Notes: 8-mer, flanks averaged, mean of replicates
Reading: higher = stronger binding
Quantity: E-score
Sequence = ACTTTGAG; value = 0.0554
Sequence = CTCGCGGC; value = -0.369
Sequence = CTGGTGAA; value = -0.104
Sequence = ACCAAGGG; value = -0.0827
Sequence = AGACGAAG; value = -0.0642
Sequence = ACCGATCG; value = -0.142
Sequence = GCAGTCTA; value = 0.0567
Sequence = ACCTCCAC; value = -0.145
Sequence = CGTAGCAC; value = 0.0674
Sequence = ACACCGGC; value = -0.223
Sequence = AGGCCAAT; value = 0.0695
Sequence = TAAGCTAA; value = 0.205
Sequence = TCTTCAAA; value = 0.193
Sequence = GATATGCC; value = -0.0624
Sequence = CGCGTCAG; value = -0.233
Sequence = CATGTTGC; value = -0.035
Sequence = GTGCTATA; value = 0.321
Sequence = ATGCGAGA; value = 0.103
Sequence = GTCCCTCA; value = -0.14
Sequence = AGATGGAC; value = -0.0124
Sequence = ACGGCTTG; value = -0.214
Sequence = AAGTACCG; value = 0.0138
Sequence = AACCCACG; value = -0.123

Block 7
Target: FOS, bZIP domain (human)
Method: DHFR protein complementation
Sample: yeast
Notes: single substitutions, most at no-binding floor
Baseline: wild-type JUN-FOS pair
Reading: higher = stronger binding
Quantity: binding fitness
Starting sequence: JUN, bZIP domain (human); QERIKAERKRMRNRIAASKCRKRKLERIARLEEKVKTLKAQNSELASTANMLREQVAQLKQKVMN; partner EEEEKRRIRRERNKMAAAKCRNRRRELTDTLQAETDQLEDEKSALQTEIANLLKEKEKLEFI
Variant = T37G; value = -0.1 natural log
Variant = E44L; value = -0.163 natural log
Variant = E32V; value = -0.0997 natural log
Variant = N42Q; value = -0.738 natural log
Variant = K34D; value = -0.405 natural log
Variant = S47H; value = -0.0134 natural log
Variant = A57I; value = -0.353 natural log
Variant = S47L; value = -0.0198 natural log
Variant = V35E; value = -1.11 natural log
Variant = S43K; value = 0.144 natural log
Variant = Q58R; value = -0.131 natural log
Variant = L52M; value = -0.815 natural log
Variant = E33D; value = -0.114 natural log
Variant = Q41V; value = -0.13 natural log
Variant = I28V; value = -0.0571 natural log
Variant = E44T; value = -0.224 natural log

For quick reference, copied from above (block 3):
Variant = P10E; value = -0.519 kcal/mol
Variant = F63Q; value = 0.842 kcal/mol
Variant = V82C; value = 0.298 kcal/mol
Variant = N80S; value = 0.0432 kcal/mol
Variant = K8S; value = 0.88 kcal/mol
Variant = I85N; value = 0.00133 kcal/mol
Variant = I85T; value = -0.0353 kcal/mol
Variant = Q50M; value = -0.0675 kcal/mol
Variant = V87H; value = 0.0192 kcal/mol
Variant = G24M; value = 1.45 kcal/mol
